Experimental data pooled from the literature.
Each line is one published result; not all experiments were run side by side.
Organism: Klebsiella pneumoniae

`CC[C@H](C)[C@H](NC(=O)[C@@H](CCCNC(=N)N)NC(=O)[C@H](CCCNC(=N)N)NC(=O)[C@@H]1CCCN1C(=O)[C@@H]1CCCN1C(=O)[C@H](Cc1ccccc1)NC(=O)[C@@H]1CCCN1C(=O)[C@H](CCCNC(=N)N)NC(=O)[C@@H]1CCCN1C(=O)[C@H](CC(C)C)NC(=O)[C@H](Cc1ccc(O)cc1)NC(=O)[C@@H]1CCCN1C(=O)[C@@H]1CCCN1C(=O)[C@H](CCCCN)NC(=O)[C@H](CC(=O)O)NC(=O)[C@@H](N)C(C)C)C(=O)N[C@@H](Cc1ccc(O)cc1)C(=O)N[C@@H](CC(N)=O)C(=O)N[C@H](CCCNC(=N)N)C(N)=O` gave an MIC of 4 µg/mL (broth microdilution; DSM 681; 18 h, 37 °C, 25% MHB2).
`CC(NC(=O)c1ccccc1)C(CCCCCCCCCCCCCCC(=O)CCCCCCCC(OC(=O)c1ccccc1)C(C)NC(=O)c1ccccc1)OC(=O)c1ccccc1` (stereo not shown) gave an MIC of over 50 µM (resazurin).
`CC1(C)[C@H](NC(=O)/C(=N\OCC(=O)N2CCC[C@@H]2C(=O)O)c2nsc(N)n2)C(=O)N1OS(=O)(=O)O` gave an MIC of 8 µg/mL (agar dilution; 09-20, NDM-1).
`COc1ccc2ccc(O)c(/C=N/[C@H]3CCCC[C@H]3/N=C/c3ccc(C)cc3O)c2c1` has an MIC of over 40 µM (bacterial growth, broth microdilution; carbapenem-resistant).
For `CC(=O)N[C@H](Cc1ccc(C(F)(F)F)cc1)C(=O)N[C@@H](CCN)C(=O)N[C@H](C(=O)N[C@@H](CCN)C(=O)N[C@H]1CCNC(=O)[C@H]([C@@H](C)O)NC(=O)[C@H](CCN)NC(=O)[C@H](CCN)NC(=O)[C@H](CC(C)C)NC(=O)[C@@H](Cc2ccccc2)NC(=O)[C@H](CCN)NC1=O)[C@@H](C)O`, the MIC was 8 to 16 µg/mL (broth microdilution; ATCC 13883, colistin-susceptible).
The MIC of `N=C(N)NCCC[C@@H]1NC(=O)[C@H](CCCNC(=N)N)NC(=O)[C@H](CCCNC(=N)N)NC(=O)[C@@H](CCCNC(=N)N)NC(=O)[C@H](Cc2ccc3ccccc3c2)NC(=O)[C@H](Cc2ccc3ccccc3c2)NC(=O)[C@H](Cc2ccc3ccccc3c2)NC1=O` is reported as 64 µg/mL (ATCC BAA1705, KPC-2 carbapenem-resistant).
`CC[C@H](C)[C@H](NC(=O)[C@H](CCCCN)NC(=O)[C@H](CCCCN)NC(=O)[C@H](Cc1ccccc1)NC(=O)[C@H](Cc1ccccc1)NC(=O)[C@H](CCCCN)NC(=O)[C@H](CCCCN)NC(=O)[C@H](Cc1ccccc1)NC(=O)[C@H](CCCNC(=N)N)NC(=O)[C@@H](N)CCCCN)C(=O)N[C@@H](CCCCN)C(=O)N[C@@H](CCCCN)C(=O)N[C@@H](CO)C(=O)N[C@H](C(=O)N[C@@H](CCCCN)C(=O)N[C@@H](CCCCN)C(=O)N[C@@H](CCCNC(=N)N)C(=O)N[C@H](C(=O)N[C@@H](CCCCN)C(=O)N[C@@H](CCCCN)C(=O)N[C@@H](CC(C)C)C(=O)N[C@@H](Cc1ccccc1)C(=O)N[C@@H](CCCCN)C(=O)N[C@@H](CCCCN)C(=O)N1CCC[C@H]1C(=O)N[C@@H](CCCNC(=N)N)C(=O)N[C@H](C(=O)N[C@H](C(=O)N1CCC[C@H]1C(=O)N[C@H](C(=O)N[C@@H](CO)C(=O)N[C@H](C(=O)N1CCC[C@H]1C(=O)N[C@@H](Cc1ccccc1)C(=O)O)[C@@H](C)CC)[C@@H](C)CC)[C@@H](C)CC)C(C)C)C(C)C)C(C)C` has an MIC of 2 µg/mL (broth microdilution; ATCC 13883; 20 h).
For `CCCCCCCC(=O)N[C@@H](CCN)C(=O)N[C@H](C(=O)N[C@@H](CCN)C(=O)N[C@H]1CCNC(=O)[C@H]([C@@H](C)O)NC(=O)[C@H](CCN)NC(=O)[C@H](CCN)NC(=O)[C@H](CCc2ccccc2)NC(=O)[C@@H](CC(C)C)NC(=O)[C@H](CCN)NC1=O)[C@@H](C)O`, the MIC was 1 to 2 µg/mL (broth microdilution; ATCC 13883, colistin-susceptible).
For `CC[C@H](C)[C@H](N)C(=O)N[C@@H](CCCNC(=N)N)C(=O)N[C@H](C(=O)N[C@@H](Cc1c[nH]c2ccccc12)C(=O)N[C@@H](Cc1ccccc1)C(=O)N[C@H](C(=O)N[C@@H](CCCCN)C(=O)N[C@H](C(=O)N[C@@H](CCCNC(=N)N)C(=O)N[C@@H](CCCCN)C(=O)N[C@@H](CCSC)C(=O)N[C@@H](CCCCN)C(=O)N[C@@H](C)C(=O)N[C@H](C(=O)N[C@@H](Cc1ccc(O)cc1)C(=O)N[C@@H](Cc1c[nH]cn1)C(N)=O)[C@@H](C)CC)C(C)C)[C@@H](C)CC)C(C)C`, the MIC was 100 µM (broth dilution; ATCC 700603).
`CC(C)C[C@H](NC(=O)[C@H](CC(C)C)NC(=O)[C@H](CCCCN)NC(=O)[C@H](Cc1ccccc1)NC(=O)[C@@H](NC(=O)[C@H](CCCNC(=N)N)NC(=O)[C@H](CCCCN)NC(=O)[C@H](Cc1c[nH]c2ccccc12)NC(=O)[C@@H](NC(=O)[C@@H](N)CCCNC(=N)N)C(C)C)C(C)C)C(=O)N[C@@H](CCCCN)C(=O)N[C@@H](CCCNC(=N)N)C(=O)N[C@@H](Cc1ccc(O)cc1)C(=O)N[C@@H](Cc1c[nH]c2ccccc12)C(=O)N[C@@H](CCCNC(=N)N)C(N)=O` gave an MIC of 2.5 µg/mL (broth microdilution; 10145).
